Assay results from different studies.
Each numbered part is a random draw from the data of one study; scales do not carry over between parts. “And” joins repeats or separate records; there may be more than shown.
Chain of UniProt P42336 (whole entry, unmodified, looked up): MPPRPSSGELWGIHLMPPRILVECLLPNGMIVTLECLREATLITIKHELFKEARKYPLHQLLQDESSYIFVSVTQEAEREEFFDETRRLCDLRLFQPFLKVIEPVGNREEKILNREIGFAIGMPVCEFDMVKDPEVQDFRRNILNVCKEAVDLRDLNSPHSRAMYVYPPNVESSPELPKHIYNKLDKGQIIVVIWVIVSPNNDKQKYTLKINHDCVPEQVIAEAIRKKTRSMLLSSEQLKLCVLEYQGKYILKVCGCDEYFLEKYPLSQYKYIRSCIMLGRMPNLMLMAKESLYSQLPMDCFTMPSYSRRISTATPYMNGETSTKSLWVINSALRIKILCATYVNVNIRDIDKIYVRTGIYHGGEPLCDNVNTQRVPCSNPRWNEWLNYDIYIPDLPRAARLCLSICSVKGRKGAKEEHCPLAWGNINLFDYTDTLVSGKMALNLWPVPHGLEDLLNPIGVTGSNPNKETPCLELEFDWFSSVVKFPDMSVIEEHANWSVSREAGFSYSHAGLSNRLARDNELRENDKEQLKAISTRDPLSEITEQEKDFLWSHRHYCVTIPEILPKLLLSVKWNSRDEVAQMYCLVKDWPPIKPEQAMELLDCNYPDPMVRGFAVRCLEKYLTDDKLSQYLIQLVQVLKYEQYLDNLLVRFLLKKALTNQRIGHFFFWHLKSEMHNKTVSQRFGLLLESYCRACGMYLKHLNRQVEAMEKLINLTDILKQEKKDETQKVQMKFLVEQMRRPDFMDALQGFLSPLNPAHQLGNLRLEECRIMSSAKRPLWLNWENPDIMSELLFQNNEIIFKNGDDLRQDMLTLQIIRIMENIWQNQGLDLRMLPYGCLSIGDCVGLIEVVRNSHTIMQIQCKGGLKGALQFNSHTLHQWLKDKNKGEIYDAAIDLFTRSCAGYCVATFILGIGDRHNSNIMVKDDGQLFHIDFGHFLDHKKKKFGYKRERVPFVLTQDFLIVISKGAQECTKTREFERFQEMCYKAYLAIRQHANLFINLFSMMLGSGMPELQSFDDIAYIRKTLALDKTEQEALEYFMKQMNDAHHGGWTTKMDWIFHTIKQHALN
Chain of UniProt Q9Y2U5 (whole entry, looked up): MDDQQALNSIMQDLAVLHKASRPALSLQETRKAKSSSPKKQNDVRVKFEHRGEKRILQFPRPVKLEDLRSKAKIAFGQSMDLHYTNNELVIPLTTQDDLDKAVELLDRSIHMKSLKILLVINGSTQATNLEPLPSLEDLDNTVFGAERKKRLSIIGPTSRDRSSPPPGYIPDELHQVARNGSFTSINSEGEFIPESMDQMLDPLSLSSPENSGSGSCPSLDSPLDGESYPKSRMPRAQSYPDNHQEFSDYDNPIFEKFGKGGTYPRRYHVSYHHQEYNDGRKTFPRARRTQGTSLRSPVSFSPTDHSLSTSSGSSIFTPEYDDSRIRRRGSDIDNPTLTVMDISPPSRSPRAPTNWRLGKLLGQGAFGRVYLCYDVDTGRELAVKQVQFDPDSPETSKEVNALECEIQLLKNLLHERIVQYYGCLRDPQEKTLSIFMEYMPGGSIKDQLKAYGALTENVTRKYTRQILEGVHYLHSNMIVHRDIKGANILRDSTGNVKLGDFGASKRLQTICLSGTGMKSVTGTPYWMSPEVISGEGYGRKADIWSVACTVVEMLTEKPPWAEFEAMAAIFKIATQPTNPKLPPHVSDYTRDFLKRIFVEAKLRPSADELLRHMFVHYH
Chain of UniProt O96017 (whole entry, looked up): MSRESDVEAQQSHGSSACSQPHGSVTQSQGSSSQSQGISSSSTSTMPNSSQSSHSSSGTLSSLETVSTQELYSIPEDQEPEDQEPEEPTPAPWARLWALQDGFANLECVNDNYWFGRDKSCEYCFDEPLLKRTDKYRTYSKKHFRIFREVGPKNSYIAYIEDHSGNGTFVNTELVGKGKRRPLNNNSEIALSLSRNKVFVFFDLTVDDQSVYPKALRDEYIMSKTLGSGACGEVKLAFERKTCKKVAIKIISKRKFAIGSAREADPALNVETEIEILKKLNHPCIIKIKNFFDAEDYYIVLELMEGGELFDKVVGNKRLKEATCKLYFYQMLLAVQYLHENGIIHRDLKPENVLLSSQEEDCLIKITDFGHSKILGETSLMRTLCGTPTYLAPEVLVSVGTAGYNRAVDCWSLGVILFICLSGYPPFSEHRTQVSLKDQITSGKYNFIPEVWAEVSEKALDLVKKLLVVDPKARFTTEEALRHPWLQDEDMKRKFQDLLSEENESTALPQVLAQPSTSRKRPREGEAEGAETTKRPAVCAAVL

Sample 1
Target: DNA polymerase theta, ATPase domain (POLQ, Homo sapiens, UniProt O75417)
Chain of UniProt O75417 (whole entry, unmodified, looked up): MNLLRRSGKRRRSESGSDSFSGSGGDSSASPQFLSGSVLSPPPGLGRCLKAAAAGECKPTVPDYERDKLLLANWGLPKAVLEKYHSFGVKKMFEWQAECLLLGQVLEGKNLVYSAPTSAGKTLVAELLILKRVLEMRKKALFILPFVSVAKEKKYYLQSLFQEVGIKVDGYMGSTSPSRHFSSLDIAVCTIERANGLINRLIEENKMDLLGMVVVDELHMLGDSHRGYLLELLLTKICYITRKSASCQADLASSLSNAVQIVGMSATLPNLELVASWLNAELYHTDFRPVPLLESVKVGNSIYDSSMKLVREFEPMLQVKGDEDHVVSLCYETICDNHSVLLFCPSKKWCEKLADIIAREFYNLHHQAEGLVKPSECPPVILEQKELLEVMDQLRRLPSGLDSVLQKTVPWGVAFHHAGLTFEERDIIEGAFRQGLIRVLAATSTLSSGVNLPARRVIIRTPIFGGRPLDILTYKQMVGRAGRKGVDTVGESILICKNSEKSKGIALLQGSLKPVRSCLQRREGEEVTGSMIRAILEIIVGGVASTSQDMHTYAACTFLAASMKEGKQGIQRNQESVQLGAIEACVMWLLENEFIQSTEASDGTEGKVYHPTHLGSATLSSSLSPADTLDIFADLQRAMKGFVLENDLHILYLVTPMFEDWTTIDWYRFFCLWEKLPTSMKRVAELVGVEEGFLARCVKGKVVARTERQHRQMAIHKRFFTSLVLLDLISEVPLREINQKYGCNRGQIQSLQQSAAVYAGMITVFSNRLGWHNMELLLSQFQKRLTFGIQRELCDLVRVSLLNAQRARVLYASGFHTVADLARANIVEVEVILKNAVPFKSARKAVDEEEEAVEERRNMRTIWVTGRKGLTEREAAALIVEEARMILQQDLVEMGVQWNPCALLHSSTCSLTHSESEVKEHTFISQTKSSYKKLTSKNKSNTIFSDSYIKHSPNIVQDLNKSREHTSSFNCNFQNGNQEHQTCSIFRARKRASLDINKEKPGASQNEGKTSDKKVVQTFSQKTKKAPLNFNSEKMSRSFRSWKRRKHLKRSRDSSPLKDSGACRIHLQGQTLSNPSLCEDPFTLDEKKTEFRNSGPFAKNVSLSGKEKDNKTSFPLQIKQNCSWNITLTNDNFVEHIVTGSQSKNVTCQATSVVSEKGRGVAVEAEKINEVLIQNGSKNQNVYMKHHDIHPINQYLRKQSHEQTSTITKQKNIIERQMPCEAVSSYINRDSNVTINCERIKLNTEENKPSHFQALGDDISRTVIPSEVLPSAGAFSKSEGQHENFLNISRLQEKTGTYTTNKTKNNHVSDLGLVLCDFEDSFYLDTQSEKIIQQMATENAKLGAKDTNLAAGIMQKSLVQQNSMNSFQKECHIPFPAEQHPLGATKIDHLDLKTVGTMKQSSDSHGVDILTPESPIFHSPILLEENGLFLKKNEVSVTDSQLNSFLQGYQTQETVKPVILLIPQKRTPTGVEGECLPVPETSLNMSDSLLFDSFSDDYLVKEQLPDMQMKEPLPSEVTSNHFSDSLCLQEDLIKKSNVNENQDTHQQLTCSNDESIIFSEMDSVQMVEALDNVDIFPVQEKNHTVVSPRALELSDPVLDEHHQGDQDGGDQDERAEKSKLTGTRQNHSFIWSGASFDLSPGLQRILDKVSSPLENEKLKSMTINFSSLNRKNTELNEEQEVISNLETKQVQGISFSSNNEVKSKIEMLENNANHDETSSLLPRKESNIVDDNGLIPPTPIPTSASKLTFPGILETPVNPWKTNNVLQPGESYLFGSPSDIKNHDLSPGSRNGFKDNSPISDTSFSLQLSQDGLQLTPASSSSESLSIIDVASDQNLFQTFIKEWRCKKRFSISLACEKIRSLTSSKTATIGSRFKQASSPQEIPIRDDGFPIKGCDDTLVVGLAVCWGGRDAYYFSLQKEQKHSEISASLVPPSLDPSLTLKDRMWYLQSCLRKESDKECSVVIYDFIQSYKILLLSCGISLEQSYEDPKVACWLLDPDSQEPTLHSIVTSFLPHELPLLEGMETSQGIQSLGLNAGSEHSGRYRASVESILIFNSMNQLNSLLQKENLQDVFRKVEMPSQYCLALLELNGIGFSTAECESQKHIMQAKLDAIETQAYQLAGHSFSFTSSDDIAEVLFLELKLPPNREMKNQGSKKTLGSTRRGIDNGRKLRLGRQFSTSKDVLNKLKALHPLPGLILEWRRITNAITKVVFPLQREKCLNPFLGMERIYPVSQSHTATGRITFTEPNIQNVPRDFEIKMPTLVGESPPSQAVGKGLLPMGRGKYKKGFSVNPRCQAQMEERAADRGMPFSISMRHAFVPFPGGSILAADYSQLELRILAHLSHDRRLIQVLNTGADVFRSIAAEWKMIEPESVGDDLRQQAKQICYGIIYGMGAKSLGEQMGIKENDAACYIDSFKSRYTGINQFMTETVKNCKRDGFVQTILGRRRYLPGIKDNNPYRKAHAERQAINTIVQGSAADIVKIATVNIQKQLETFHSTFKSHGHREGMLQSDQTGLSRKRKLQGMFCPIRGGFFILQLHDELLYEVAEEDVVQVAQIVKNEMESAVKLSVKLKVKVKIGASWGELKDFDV
Effect on: enzyme activity
Mode: inhibitor
Concentration: 77 µM
Relative to: untreated
For `O=C(Nc1ccc(S(=O)(=O)Nc2ccccc2Cl)c(Cl)c1)c1ccccn1`, the remaining activity was 97.1%.
With `CCn1cc(C(=O)O)c(=O)c2cc(F)c(N3CCNCC3)cc21` the remaining activity was 96.5%.
For `C[C@@H]1C(=O)O[C@H]2C[C@@]34[C@H]5C[C@@H](C(C)(C)C)[C@]36[C@@H](OC(=O)[C@@H]6O)O[C@@]4(C(=O)O5)[C@]21O`, the remaining activity was 103% and 98.8%.
The remaining activity of `CC(=O)Nc1ccc(OCC(O)CNC(C)C)cc1` (stereo not drawn) is reported as 105%.
`N[C@@H](Cc1ccc(O)c(I)c1)C(=O)O` gave a remaining activity of 100%.

Sample 2
Compound: CN1CCC[C@H]1COc1nc2c(c(N3CCN(S(C)(=O)=O)[C@@H](CC#N)C3)n1)CCN(c1cccc3cccc(Cl)c13)C2
Cell line: HEK293
Method: CellTiter-Glo
Relative to: vehicle
For 1.25 µM: viability read 79.6% and 69.3% and 68.7%.
For 312 nM: viability read 102% and 105%.
For 20 µM: viability read 5.75% and 11.4% and 6.28%.
It gave 108% and 109% and 95.9% for viability (625 nM).

Sample 3
SMILES: COc1ccc2c(c1)O[C@@H](c1ccc(OC)c(OC)c1)C[C@H]2NC(=O)C1(c2ccc3c(c2)OC(F)(F)O3)CC1
Effect on: cell-free assay
Method: competition with immobilised ligand
Concentration: 1 µM
It gave 84% for remaining binding (Serine/threonine-protein kinase Chk2 (CHEK2, Homo sapiens, UniProt O96017)).
Mast/stem cell growth factor receptor Kit (KIT, Homo sapiens, UniProt P10721, V559D/V654A) — remaining binding: 100%.
For Phosphatidylinositol 4,5-bisphosphate 3-kinase catalytic subunit alpha isoform (PIK3CA, Homo sapiens, UniProt P42336, Q546K): remaining binding read 78%.
Mitogen-activated protein kinase kinase kinase 9 (MAP3K9, Homo sapiens, UniProt P80192) — remaining binding: 100%.
For Epidermal growth factor receptor (EGFR, Homo sapiens, UniProt P00533, A750P/del747-749): remaining binding read 100%.
For Serine/threonine-protein kinase N2 (PKN2, Homo sapiens, UniProt Q16513): remaining binding read 100%.
It gave 81% for remaining binding (Ribosomal protein S6 kinase beta-1 (RPS6KB1, Homo sapiens, UniProt P23443)).
Mitogen-activated protein kinase kinase kinase 2 (MAP3K2, Homo sapiens, UniProt Q9Y2U5) — remaining binding: 86%.

Sample 4
Cell line: HaCaT
Concentration: 100 µM
Time: 60 h
With `CCCc1cc(C(N)=S)ccn1` the viability was 145%.
With `CCOc1cc([C@@H](CS(C)(=O)=O)N2C(=O)c3cccc(NC(C)=O)c3C2=O)ccc1OC` the viability was 129%.
`CCN(CC)C(=O)N1CCN(C)CC1` has a viability of 144%.
`O=C(NCCO[N+](=O)[O-])c1cccnc1` has a viability of 139%.

Excerpt of the above (sample 3):
It gave 84% for remaining binding (Serine/threonine-protein kinase Chk2 (CHEK2, Homo sapiens, UniProt O96017)).
Mast/stem cell growth factor receptor Kit (KIT, Homo sapiens, UniProt P10721, V559D/V654A) — remaining binding: 100%.
